Measurements pooled from the literature.
Each numbered part is a random draw from the data of one study; scales do not carry over between parts. Values joined by “and” are separate records of one study, mostly repeats; a detail may differ.
Sequence of UniProt O76039 (whole entry, looked up): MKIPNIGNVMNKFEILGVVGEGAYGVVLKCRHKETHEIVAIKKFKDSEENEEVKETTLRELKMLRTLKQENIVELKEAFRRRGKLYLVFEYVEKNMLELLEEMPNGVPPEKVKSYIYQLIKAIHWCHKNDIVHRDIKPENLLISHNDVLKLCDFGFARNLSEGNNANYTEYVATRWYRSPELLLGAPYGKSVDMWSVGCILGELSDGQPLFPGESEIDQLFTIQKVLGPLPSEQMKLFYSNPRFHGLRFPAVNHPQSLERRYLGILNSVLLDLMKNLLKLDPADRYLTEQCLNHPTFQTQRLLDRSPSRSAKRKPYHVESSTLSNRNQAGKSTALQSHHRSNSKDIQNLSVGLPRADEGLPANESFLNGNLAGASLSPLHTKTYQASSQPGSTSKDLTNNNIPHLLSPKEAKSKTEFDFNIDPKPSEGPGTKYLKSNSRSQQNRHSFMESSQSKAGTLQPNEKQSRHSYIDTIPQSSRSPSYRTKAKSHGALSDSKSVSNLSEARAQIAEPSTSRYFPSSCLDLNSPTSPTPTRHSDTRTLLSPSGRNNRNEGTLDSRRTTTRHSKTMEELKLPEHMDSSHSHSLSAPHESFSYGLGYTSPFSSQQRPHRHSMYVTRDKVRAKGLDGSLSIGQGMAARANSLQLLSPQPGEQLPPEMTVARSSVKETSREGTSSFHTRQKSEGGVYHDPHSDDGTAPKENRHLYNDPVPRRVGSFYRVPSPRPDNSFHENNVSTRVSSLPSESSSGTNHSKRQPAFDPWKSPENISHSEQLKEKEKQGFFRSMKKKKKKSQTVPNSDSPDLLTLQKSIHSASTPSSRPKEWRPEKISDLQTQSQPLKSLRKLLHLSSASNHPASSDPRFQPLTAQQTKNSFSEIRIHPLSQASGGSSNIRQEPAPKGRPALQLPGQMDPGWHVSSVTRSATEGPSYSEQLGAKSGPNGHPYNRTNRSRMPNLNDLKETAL
Sequence of UniProt Q9P2K8 (whole entry, unmodified, looked up): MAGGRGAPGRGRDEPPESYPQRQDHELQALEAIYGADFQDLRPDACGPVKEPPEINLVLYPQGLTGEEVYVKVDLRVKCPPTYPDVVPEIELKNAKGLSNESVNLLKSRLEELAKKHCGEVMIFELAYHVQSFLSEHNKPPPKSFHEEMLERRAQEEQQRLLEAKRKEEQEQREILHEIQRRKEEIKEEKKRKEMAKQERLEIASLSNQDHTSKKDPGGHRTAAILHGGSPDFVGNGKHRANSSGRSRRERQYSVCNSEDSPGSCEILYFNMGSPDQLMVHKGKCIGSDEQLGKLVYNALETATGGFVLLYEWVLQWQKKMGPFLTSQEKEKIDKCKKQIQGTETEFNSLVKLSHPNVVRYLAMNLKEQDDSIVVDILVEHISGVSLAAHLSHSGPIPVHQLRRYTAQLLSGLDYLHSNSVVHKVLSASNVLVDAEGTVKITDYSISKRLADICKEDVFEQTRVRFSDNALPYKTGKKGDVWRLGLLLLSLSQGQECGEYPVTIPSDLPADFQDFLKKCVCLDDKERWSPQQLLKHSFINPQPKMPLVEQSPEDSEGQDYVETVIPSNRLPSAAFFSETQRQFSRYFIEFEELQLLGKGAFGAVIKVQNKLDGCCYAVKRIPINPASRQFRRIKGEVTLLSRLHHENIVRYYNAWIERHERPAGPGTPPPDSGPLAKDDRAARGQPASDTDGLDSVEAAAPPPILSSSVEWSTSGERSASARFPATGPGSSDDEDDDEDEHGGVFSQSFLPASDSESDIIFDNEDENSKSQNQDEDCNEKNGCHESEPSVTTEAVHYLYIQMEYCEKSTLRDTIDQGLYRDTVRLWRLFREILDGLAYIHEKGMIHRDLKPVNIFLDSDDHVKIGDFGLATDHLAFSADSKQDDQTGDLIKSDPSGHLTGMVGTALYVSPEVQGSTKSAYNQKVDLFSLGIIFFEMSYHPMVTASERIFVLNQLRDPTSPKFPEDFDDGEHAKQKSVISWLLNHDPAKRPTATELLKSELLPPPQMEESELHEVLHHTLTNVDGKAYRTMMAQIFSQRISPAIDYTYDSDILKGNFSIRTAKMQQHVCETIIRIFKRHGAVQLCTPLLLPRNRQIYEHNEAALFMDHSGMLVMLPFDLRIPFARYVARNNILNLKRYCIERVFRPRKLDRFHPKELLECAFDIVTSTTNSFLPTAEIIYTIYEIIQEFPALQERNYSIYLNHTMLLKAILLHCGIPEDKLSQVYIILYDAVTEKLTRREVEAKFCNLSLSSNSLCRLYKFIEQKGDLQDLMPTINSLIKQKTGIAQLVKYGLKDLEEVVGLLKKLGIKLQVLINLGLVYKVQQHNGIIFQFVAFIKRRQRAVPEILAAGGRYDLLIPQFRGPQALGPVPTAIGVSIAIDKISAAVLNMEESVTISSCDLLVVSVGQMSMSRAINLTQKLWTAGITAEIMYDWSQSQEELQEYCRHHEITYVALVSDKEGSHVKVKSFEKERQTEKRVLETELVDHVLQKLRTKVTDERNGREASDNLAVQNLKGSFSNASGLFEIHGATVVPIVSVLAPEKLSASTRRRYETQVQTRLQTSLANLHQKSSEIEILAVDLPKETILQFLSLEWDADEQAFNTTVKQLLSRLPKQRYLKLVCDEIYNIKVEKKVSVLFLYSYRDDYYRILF
Sequence of UniProt Q8IYT8 (whole entry, looked up): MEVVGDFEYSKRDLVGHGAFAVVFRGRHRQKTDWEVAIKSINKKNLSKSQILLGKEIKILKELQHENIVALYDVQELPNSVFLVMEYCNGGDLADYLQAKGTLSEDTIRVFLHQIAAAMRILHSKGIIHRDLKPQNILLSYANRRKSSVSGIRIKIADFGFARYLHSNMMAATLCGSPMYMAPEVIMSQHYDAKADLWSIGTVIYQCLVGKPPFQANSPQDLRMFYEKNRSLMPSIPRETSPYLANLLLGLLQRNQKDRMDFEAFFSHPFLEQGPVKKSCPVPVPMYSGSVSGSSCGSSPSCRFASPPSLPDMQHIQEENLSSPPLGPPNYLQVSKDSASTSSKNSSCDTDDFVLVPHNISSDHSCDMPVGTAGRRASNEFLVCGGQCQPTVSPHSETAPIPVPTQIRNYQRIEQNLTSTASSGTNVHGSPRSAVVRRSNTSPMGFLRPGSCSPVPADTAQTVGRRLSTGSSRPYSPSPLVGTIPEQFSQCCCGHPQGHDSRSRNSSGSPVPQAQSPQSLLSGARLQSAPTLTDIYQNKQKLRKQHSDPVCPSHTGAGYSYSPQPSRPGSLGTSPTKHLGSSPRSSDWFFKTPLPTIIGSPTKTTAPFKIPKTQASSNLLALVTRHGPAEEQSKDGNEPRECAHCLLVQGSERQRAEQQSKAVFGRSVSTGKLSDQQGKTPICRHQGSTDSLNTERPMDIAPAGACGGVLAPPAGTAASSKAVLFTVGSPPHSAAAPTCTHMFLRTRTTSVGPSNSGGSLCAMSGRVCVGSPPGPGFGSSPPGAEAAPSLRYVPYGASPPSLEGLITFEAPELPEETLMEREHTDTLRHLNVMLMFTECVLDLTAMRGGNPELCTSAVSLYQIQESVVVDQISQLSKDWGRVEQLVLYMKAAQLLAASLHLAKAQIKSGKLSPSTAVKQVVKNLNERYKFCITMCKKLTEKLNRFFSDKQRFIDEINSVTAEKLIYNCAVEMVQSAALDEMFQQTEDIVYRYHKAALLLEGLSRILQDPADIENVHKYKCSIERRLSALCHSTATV
Sequence of UniProt Q86UE8 (whole entry, looked up): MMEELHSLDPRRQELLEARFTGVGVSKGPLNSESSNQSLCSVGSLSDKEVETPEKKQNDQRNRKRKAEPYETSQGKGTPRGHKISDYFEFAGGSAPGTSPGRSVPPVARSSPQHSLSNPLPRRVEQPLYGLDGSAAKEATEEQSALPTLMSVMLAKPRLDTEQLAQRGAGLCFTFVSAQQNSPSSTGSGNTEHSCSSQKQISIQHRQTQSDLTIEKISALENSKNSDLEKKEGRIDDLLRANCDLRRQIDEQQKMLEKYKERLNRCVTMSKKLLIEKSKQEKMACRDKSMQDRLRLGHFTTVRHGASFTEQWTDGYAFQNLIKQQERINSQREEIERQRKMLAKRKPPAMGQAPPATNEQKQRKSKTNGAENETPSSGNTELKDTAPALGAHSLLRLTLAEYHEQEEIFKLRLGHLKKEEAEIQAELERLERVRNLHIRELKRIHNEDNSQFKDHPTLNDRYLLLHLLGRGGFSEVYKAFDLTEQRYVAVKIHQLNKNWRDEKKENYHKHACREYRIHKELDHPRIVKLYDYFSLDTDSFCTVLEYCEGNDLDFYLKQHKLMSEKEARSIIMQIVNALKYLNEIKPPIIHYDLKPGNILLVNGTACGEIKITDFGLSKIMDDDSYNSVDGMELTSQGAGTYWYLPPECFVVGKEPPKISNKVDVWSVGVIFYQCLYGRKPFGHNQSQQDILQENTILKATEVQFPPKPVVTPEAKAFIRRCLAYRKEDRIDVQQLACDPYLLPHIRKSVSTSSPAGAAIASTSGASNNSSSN

Set 1 — species: C57BL/6 CES1-/- mice, EL4 tumour; matrix: EL4 tumour; route: subcutaneous; dose: 0.3 mg/kg/day DON equivalent; time: 5 days; endpoint: metabolite peak intensity
SMILES: CC(=O)N[C@@H](Cc1c[nH]c2ccccc12)C(=O)N[C@@H](CCC(=O)C=[N+]=[N-])C(=O)OC(C)C
LC-MS/MS metabolomics, measured: orotate; higher = more metabolite: 1.5e+08 a.u. and 2.71e+08 a.u. and 7.06e+07 a.u. and 9.72e+07 a.u. and 1.54e+08 a.u. and 8.36e+07 a.u.
LC-MS/MS metabolomics, measured: 3-phenylpropionate; normalised to tissue mass; higher = more metabolite: 48900 a.u. and 32600 a.u. and 47500 a.u. and 46100 a.u. and 23700 a.u.
LC-MS/MS metabolomics, measured: mannitol/sorbitol; higher = more metabolite: 3.04e+07 a.u. and 1.97e+07 a.u. and 1.61e+07 a.u. and 3.02e+07 a.u. and 2.71e+07 a.u. and 2.82e+07 a.u.
LC-MS/MS metabolomics, measured: 2-hydroxy-4-(methylthio)butanoic acid; normalised to tissue mass; higher = more metabolite: 791000 a.u. and 1.93e+06 a.u. and 1.54e+06 a.u. and 2.63e+06 a.u. and 1.26e+06 a.u. and 1.22e+06 a.u.
UPLC-MS/MS metabolomics, measured: N-acetylvaline; normalised to tissue mass; higher = more metabolite: 198000 a.u. and 188000 a.u. and 223000 a.u. and 127000 a.u. and 184000 a.u. and 154000 a.u.
UPLC-MS/MS, measured: FGAR: 2.01e+07 a.u. and 4.59e+07 a.u. and 6e+07 a.u. and 1.26e+08 a.u. and 1.14e+08 a.u. and 5.11e+07 a.u.

Set 2 — observed: binding; mode: competitor; technique: NanoBRET; cells: HEK293; endpoint: normalized BRET
SMILES: CCC(=O)N1CCN(c2nc(OC[C@@H]3CCCN3C)nc3c2CCN(c2cccc4cccc(Cl)c24)C3)C[C@@H]1CC#N
KRAS G13D: GTPase KRas (KRAS, Homo sapiens, UniProt P01116, G13D)
KRAS Q61R: GTPase KRas (KRAS, Homo sapiens, UniProt P01116, Q61R)
GTPase KRas (KRAS, Homo sapiens, UniProt P01116, G12D); 137 nM: 97.4% and 99.5% and 96.8%
KRAS G13D; 45.7 nM: 85.9% and 101% and 90.2%
KRAS G13D; 5.08 nM: 97.2% and 102% and 94.7%
KRAS Q61R; 15.2 nM: 109% and 101% and 105%
KRAS G13D; 412 nM: 81.3% and 69.5% and 69.4%
KRAS Q61R; 137 nM: 100% and 107% and 103%
KRAS G13D; 137 nM: 92.6% and 80.9% and 83.7%
KRAS G13D; 1.69 nM: 106% and 98.7% and 92%

Set 3 — observed: enzyme activity; mode: inhibitor; concentration: 0.5 µM; relative to: control; endpoint: remaining activity
Target: Ribosomal protein S6 kinase beta-2 (RPS6KB2, Homo sapiens, UniProt Q9UBS0)
Sequence of UniProt Q9UBS0 (whole entry, looked up): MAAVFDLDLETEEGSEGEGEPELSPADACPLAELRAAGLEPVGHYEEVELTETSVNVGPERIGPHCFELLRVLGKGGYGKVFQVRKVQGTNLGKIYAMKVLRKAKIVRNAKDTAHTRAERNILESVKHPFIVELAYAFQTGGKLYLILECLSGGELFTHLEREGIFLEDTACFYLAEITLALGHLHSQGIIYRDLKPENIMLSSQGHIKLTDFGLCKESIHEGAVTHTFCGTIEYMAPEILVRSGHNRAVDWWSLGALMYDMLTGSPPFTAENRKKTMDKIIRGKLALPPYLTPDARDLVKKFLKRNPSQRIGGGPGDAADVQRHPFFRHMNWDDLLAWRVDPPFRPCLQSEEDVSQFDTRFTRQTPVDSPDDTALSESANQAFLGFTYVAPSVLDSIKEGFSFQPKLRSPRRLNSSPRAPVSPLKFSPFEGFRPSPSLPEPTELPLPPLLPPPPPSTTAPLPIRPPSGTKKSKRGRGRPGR
N#Cc1c(NC(=O)c2cccc3ccccc23)sc2c1CCCC2: 100%
C[C@@H]1CCN(C(=O)CC#N)C[C@@H]1N(C)c1ncnc2[nH]ccc12: 100%
O=C1C(Cl)=C(N2C(=O)CCC2=O)C(=O)c2ccccc21: 102%
CN([C@@H](Cc1ccc(OS(=O)(=O)c2cccc3cnccc23)cc1)C(=O)N1CCN(c2ccccc2)CC1)S(=O)(=O)c1cccc2cnccc12: 96.6%
COc1cc2c(cc1OC)-c1[nH]nc(Nc3cccc(F)c3)c1C2: 100%
O=C(NC(NC(=S)Nc1ccc(F)c([N+](=O)[O-])c1)C(Cl)(Cl)Cl)C(c1ccccc1)c1ccccc1 (centres unmarked): 99.3%
c1ccc(-c2cnc(Nc3ccc(OCCN4CCCC4)cc3)s2)cc1: 92.7%
CN(C)C[C@H]1CCn2c(c(C3=C(c4cn(C)c5ccccc45)C(=O)NC3=O)c3ccccc32)C1: 67.6%
Cc1nc2cc3nc(-c4cccs4)cnc3cc2n1C: 98%
CCOc1nc(NC(=O)Cc2cc(OC)ccc2OC)cc(N)c1C#N: 96%
O=c1cc(-c2cccc3c2Sc2ccccc2S3)oc(N2CCOCC2)c1: 102%
COc1cc2ncnc(Nc3ccc(O)c(Br)c3)c2cc1OC: 102%
Cn1nc2c3c(cccc31)C(=O)c1ccccc1-2: 94.7%
CCN(CC)CCNC(=O)c1c(C)[nH]c(/C=C2\C(=O)Nc3ccc(F)cc32)c1C: 113%
CCN(CC)CCNC(=O)c1c(C)[nH]c(/C=C2\C(=O)Nc3ccc(Cl)cc32)c1C: 91.6%
Ic1cccc(CSc2nnc(-c3ccncc3)o2)c1: 103%
O=C(Nc1cccc(Nc2nccc(Nc3cccc(C(F)(F)F)c3)n2)c1)C1CC1: 96%
Cc1cn(-c2cc(NC(=O)c3ccc(C)c(Nc4nccc(-c5cccnc5)n4)c3)cc(C(F)(F)F)c2)cn1: 100%
Nc1cccc(-c2cc3c(Oc4cccc(O)c4)ncnc3[nH]2)c1: 94.7%
N#C/C(=C\c1ccc(O)c(O)c1)C(=O)NCc1ccccc1: 94.7%
COc1cc2ncnc(Nc3cccc(Cl)c3)c2cc1OC: 105%
O=C1c2ccccc2-c2n[nH]c3cccc1c23: 108%
CCN(CC)C(=O)c1ccc(Nc2nc(OCC3CCCCC3)c3[nH]cnc3n2)cc1: 102%
c1ccc(-c2[nH]ncc2-c2ccnc3ccccc23)nc1: 101%
Cc1cc2ncc(-c3ccccc3)nc2cc1C: 98.7%

Set 4 — technique: competition with immobilised ligand; concentration: 1 µM; endpoint: remaining binding
SMILES: CS(=O)(=O)NCC[C@H](NC(=O)c1cncc2c1cnn2-c1ccc(F)cc1)c1ccnc(S(C)(=O)=O)c1
STK17A (Homo sapiens, UniProt Q9UEE5); cell-free assay: 100%
ULK2 (Homo sapiens, UniProt Q8IYT8); cell-free assay: 100%
MAPK8 (Homo sapiens, UniProt P45983); cell-free assay: 80%
ACVRL1 (Homo sapiens, UniProt P37023); binding: 96%
CDKL5 (Homo sapiens, UniProt O76039); binding: 100%
KIT (Homo sapiens, UniProt P10721, V559D); cell-free assay: 100%
TLK2 (Homo sapiens, UniProt Q86UE8); cell-free assay: 100%
Tyrosine-protein kinase ABL1, phosphorylated (ABL1, Homo sapiens, UniProt P00519, H396P); cell-free assay: 100%
EPHA4 (Homo sapiens, UniProt P54764); cell-free assay: 100%
TGFBR1 (Homo sapiens, UniProt P36897); cell-free assay: 100%
HIPK4 (Homo sapiens, UniProt Q8NE63); cell-free assay: 100%
ULK1 (Homo sapiens, UniProt O75385); cell-free assay: 100%
ALK (Homo sapiens, UniProt Q9UM73, L1196M); cell-free assay: 100%
FRK (Homo sapiens, UniProt P42685); cell-free assay: 100%
CHEK2 (Homo sapiens, UniProt O96017); cell-free assay: 77%
eIF-2-alpha kinase GCN2, C-terminal kinase domain (EIF2AK4, Homo sapiens, UniProt Q9P2K8, S808G); cell-free assay: 100%
PDGFRA (Homo sapiens, UniProt P16234); cell-free assay: 100%

Repeated from above (set 2):
KRAS Q61R; 15.2 nM: 109% and 101% and 105%
KRAS G13D; 412 nM: 81.3% and 69.5% and 69.4%
KRAS Q61R; 137 nM: 100% and 107% and 103%
KRAS G13D; 137 nM: 92.6% and 80.9% and 83.7%
KRAS G13D; 1.69 nM: 106% and 98.7% and 92%
